Results from different studies.
Each line is one published result; not all experiments were run side by side. ± marks the error that the study gave.
CNR1: Cannabinoid receptor 1 (CNR1, Homo sapiens, UniProt P21554)
UniProt P21554, sequence (whole entry, unmodified, looked up): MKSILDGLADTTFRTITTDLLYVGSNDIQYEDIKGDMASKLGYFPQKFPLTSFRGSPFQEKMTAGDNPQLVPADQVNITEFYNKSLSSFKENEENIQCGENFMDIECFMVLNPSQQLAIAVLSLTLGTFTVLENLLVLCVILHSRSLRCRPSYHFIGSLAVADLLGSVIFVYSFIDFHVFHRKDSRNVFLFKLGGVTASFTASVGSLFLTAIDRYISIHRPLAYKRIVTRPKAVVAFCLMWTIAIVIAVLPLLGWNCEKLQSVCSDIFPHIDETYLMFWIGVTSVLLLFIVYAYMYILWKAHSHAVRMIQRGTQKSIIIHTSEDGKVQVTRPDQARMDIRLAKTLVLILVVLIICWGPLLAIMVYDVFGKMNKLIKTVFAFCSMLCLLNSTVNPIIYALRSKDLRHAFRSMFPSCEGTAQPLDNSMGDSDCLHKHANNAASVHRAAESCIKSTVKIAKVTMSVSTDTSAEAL

C[C@@H]1COCCN1c1nc(NCc2cccnc2C(F)(F)F)c2cccnc2n1  IC50 (CNR1; binding; CEREP panel): > 100 µM
COc1ccccc1C(C[N+](=O)[O-])c1c(-c2ccccc2)[nH]c2ccccc12 (stereo not drawn)  Emax (Cannabinoid receptor 1, with Gi2 (CNR1, Homo sapiens, UniProt P21554); Gi2 dissociation, agonist, BRET): 39.4 ± 4.14%
Cc1ccc2c(n1)c(-c1cccc(S(C)(=O)=O)c1)c(C)n2C/C(F)=C/CN  inhibition (CNR1; ligand displacement, radioligand; 10 µM): 11%
COC(=O)[C@@H](NC(=O)c1nn(Cc2ccc(F)cc2)c2cc(OCCCCNC(=N)N)ccc12)C(C)(C)C  maximal efficacy (Cannabinoid receptor 1, with Goa (CNR1, Homo sapiens, UniProt P21554); GTP turnover, agonist, measured: Goa Gα subtype): 118%
Cc1cc(Nc2nc(C[C@@]3(C(=O)O)CCN(Cc4cccc(Cl)c4F)[C@H](C)C3)cc(C)c2F)[nH]n1  inhibition (CNR1; inhibitor; 10 µM): -2.07%
C[C@H](NCc1ccc(-c2ccc(C(F)(F)F)cc2)cc1)C(N)=O  inhibition (CNR1; radioligand binding, SafetyScreen panel; 1 µM, species human, added: 2.0 nM [3H]SR141716A): -5%
CCCCCn1ccc(C(=O)NC(C)(C)c2ccc(-c3nn[nH]n3)cc2)n1  activity (CNR1; agonist, calcium mobilization; CHO; concentration not given): inactive
Cc1ccc2c(C(C[N+](=O)[O-])c3cccs3)c(-c3ccccc3)[nH]c2c1 (stereo not drawn)  Emax (CNR1 (Homo sapiens, UniProt P21554, N393A); G protein activation, agonist; 100%): 95.9 ± 3.25%
C/C(=N\OCCCN1CCCCC1)c1ccc(C(F)(F)F)cc1  inhibition (CNR1; antagonist, cAMP; 10 µM): 27.1%
CCCCCn1cc(C(=O)c2ccc3ccccc3c2)c2ccccc21  bias factor (ΔΔlog(Emax/EC50)) (CNR1; agonist, BRET; baseline: Gαi1 over β-arrestin 2, reference agonist): 0.36
Cc1cc(-c2ccc3ccccc3c2)nnc1NCCN1CCN(C)CC1  antagonist activity (CNR1; antagonist; concentration not given): negative
CCCCCn1ccc(C(=O)NC(C)(C)c2ccc(C(N)=O)cc2)n1  activity (CNR1; agonist, calcium mobilization; CHO; concentration not given): inactive
COC(=O)[C@@H](NC(=O)c1nn(Cc2ccc(F)cc2)c2cc(OCCCCNC(N)=O)ccc12)C(C)(C)C  maximal efficacy (Cannabinoid receptor 1, with Gi1 (CNR1, Homo sapiens, UniProt P21554); GTP turnover, agonist, measured: Gi1 Gα subtype): 89%
CN[C@@H]1[C@H](O)[C@H](NC)[C@H]2O[C@]3(O)[C@H](O[C@@H]2[C@H]1O)O[C@H](C)C[C@H]3NC(=O)Cc1cc(Cl)ccn1  inhibition (CNR1; ligand displacement, radioligand; 10 µM): -7%
CCCCCn1ccc(C(=O)NC(C)(C)c2ccc(NC(C)=O)cc2)n1  Emax (CNR1; calcium signal, agonist, fluorescence): 78%
N[C@H](C(=O)N1CCCC1)C1CCN(c2nccc3c(-c4ncc(Cl)cc4Cl)cccc23)CC1  inhibition (CNR1; functional response, antagonist; 10 µM): 2%
COc1ccc(F)cc1S(=O)(=O)Nc1cnc2c(c1)C(=O)NCCO2  inhibition (CNR1; ligand displacement, radioligand; 10 µM): 7%
CC(=O)Nc1ccc(C(C)(C)NC(=O)c2ccn(Cc3ccc(F)cc3)n2)c(Cl)c1  Emax (CNR1; calcium signal, agonist, fluorescence): 27%
CCOC(=O)[C@](CC)(CCCSCCOCCOCCNC(=O)c1ccc(-c2c3ccc(=N)c(S(=O)(=O)O)c-3oc3c(S(=O)(=O)O)c(N)ccc23)c(C(=O)O)c1)NC(=O)c1ccc(C2CC2)c(Cc2ccc(F)cc2)n1  inhibition (CNR1; ligand displacement, radioligand; 10 µM): 41%
Cc1sc2c(c1C)C(c1ccc(Cl)cc1)=NC(CC(=O)OC(C)(C)C)c1nnc(C)n1-2 (stereo not drawn)  inhibition (CNR1; ligand displacement, radioligand; 1 µM): 0%
CCCCCn1ccc(C(=O)NC(C)(C)c2ccc(NC(C)=O)cc2Cl)n1  Emax (CNR1; calcium signal, agonist, fluorescence): 71%
